# Published values gathered from unrelated publications.
# Each numbered part is a random draw from the data of one study; scales do not carry over between parts. Changes are numbered by the printed parent chain.

# Sample 1 — technique: protein-binding microarray; molecule type: double-stranded DNA, one strand shown; matrix: in vitro; tested at: not given; reading: higher = stronger binding
# Target: Hepatocyte nuclear factor 3-beta, forkhead domain (FOXA2, Homo sapiens, UniProt Q9Y261, residues 142-269)
# Notes: k-mer, scored over probes, only values ≥0.25
# Residues (chain): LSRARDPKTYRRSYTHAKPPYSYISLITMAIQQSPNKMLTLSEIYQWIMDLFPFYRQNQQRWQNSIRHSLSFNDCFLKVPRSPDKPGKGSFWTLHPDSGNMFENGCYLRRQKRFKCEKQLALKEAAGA
Sequence,E-score
AGACTATA,0.286
ATAGTATG,0.296
AACGATAT,0.349
ATTAACAC,0.375
AAGAACAA,0.261
AAATAGAC,0.303
TATATTCA,0.313
ATTTGACA,0.274

# Sample 2 — technique: RNA Bind-n-Seq; molecule type: RNA; matrix: in vitro; tested at: 100 nM; reference: input RNA pool; reading: higher = stronger binding
# Target: RING finger protein unkempt homolog, zinc fingers 1-6, SBP tag (UNK, Homo sapiens, UniProt Q9C0B0, residues 30-357)
# Chain of UniProt Q9C0B0 (30-357, looked up): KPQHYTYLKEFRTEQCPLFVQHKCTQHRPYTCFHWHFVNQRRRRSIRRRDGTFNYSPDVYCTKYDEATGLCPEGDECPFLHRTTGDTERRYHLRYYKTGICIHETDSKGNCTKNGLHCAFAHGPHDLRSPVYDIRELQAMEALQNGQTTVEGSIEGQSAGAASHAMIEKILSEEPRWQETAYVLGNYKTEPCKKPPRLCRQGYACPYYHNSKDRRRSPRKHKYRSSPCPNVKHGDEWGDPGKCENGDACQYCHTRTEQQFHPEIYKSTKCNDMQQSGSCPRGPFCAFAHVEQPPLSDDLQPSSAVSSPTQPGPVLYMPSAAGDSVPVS
# Notes: RNA with constant flanks, vertebrate orthologous sites, ends assumed
# All sequences stand within: GGGAGUUCUACAGUCCGACGAUC … CAACAGAGGAUUGAGCAUCA
Sequence,bound/input enrichment
CUUUAUGGGCCUCGCAGAGUUGAAAUAAUGGAAGAGGAAAGUGAUCAGUAAUCUUCAUUUUAGUAUUUAUGCUUAGGUGUGAAAUAAAUGUUCAUCGAUCAUUUCUAUAAUCCAGAGCUU,0.318 ratio
GUUGUGACCCAUUUAACAUACAUAAAAAACUAGCCAAAAAAAAUCUGCAUGUGAUCGAUUUAGAUGAUGCCACUUUUCUGAGCGCAAAAUUUGGAAGACAACUUGUACCUGGAUGGAAAU,1.71 ratio
GUAUGUAGAGAAAAAUUUUCAUUGACCCCCCCCCAUUGUGAAAUUCCCUAGCAAUUUAUUUAGAAUCUUAAAUUUUCUAAUUAAAGCUCAUUGUAUUAGUCAUUUUUAGCAUAAUUAAAA,3.22 ratio
GCAUGAGCAUCUACCCGGGUUUAAAGACCCUCCCUGAUGAGGCUCUCCAUGUAUUUAUCCUGUUUACACCCCUGUCUGUGUGAUUGGCAGAGGAAGGUCAGGGGGGCUCCGUGUUGACAG,0.312 ratio
CAUGUAGUUUGUUUUUAAUUUCAAGCCAAUCUUAUUGUACUUGAAUGUGCCCUGUUUUGUUAGCACACCUAGACUUGCUGUAACUGUACUCAUGUCCCAGAUGUACGUUCUUUCUAUGAA,1.18 ratio
AGCAGCGCCAGGAUUCAGGACUGGUUACACAAGCAUUCCAAGUAGACAUGGAAACAGCAGUAGAGUGGGGCAGCCCUAACCGUGAUGUACUGUAACUCAUUUUCAUGAAGAAUAUGGACG,0.571 ratio
GAGCUAAAGGAGUUAGCAUCUUUAUUUUUGUAUCAAAGAUAAAGGUUAUUUUGAAAUUAUUAGGAUUUUUACACAAUUCUGAAAUCUGUUGCUUUUGUAAACAAAUUGUUUGAUCUUAGU,1.01 ratio
AUCCUUUCAUACUGUCUCCAGCUGGUACCAUGGACUGGAUGUCUCACUGAGGACCUGCAUUUCAAAUAGUUUUUUUUUUUUAAUUGUACAAGAAGAGAUUAGAUAAAACAGCAUCUCAAA,5.77 ratio

# Single results of other studies
# P1: PafA, mature enzyme, eGFP fusion (Elizabethkingia meningoseptica, UniProt Q9KJX5); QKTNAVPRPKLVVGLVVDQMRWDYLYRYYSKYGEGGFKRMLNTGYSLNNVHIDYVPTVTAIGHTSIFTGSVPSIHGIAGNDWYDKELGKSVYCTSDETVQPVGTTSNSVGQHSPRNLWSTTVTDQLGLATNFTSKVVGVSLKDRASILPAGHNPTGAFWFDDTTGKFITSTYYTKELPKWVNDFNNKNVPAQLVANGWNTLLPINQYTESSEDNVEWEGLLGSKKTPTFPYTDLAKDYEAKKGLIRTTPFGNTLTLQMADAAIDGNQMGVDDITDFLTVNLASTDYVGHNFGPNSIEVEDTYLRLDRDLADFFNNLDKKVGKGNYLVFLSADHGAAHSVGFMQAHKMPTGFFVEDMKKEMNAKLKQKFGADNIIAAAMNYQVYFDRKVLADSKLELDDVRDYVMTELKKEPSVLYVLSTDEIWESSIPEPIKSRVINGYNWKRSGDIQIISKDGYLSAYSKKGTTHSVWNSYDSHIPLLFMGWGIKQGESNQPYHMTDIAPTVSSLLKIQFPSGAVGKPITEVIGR
Substance,target or system,assay,test system,conditions,how to read,measurement,result
P1 L407G,"inorganic phosphate, free oxyanion",microfluidic competitive inhibition,"in vitro, cell-free expressed","not given, derived from inhibition constants, unchanged parent 615000 nM",lower = stronger binding,phosphate dissociation constant,504 µM
"KRT8 (Homo sapiens, UniProt P05787)","KRT10 (Homo sapiens, UniProt P13645)",cross-linking MS,,hits only,,interaction screen,cross-linked

# A few entries again (sample 2):
Sequence,bound/input enrichment
GAGCUAAAGGAGUUAGCAUCUUUAUUUUUGUAUCAAAGAUAAAGGUUAUUUUGAAAUUAUUAGGAUUUUUACACAAUUCUGAAAUCUGUUGCUUUUGUAAACAAAUUGUUUGAUCUUAGU,1.01 ratio
AUCCUUUCAUACUGUCUCCAGCUGGUACCAUGGACUGGAUGUCUCACUGAGGACCUGCAUUUCAAAUAGUUUUUUUUUUUUAAUUGUACAAGAAGAGAUUAGAUAAAACAGCAUCUCAAA,5.77 ratio
CAUGUAGUUUGUUUUUAAUUUCAAGCCAAUCUUAUUGUACUUGAAUGUGCCCUGUUUUGUUAGCACACCUAGACUUGCUGUAACUGUACUCAUGUCCCAGAUGUACGUUCUUUCUAUGAA,1.18 ratio
